Measured values pooled from the literature.
Protocols differ between the studies behind these lines. ± gives the spread as reported.

| SMILES | test system | conditions | scale | measurement | result |
| --- | --- | --- | --- | --- | --- |
| CCCC[C@H](NC(=O)CCCCCCCNC(=O)CN1CCN(CC(=O)O)CCN(CC(=O)O)CC1)C(=O)N[C@H]1CC(=O)NCCCC[C@@H](C(N)=O)NC(=O)[C@H](Cc2c[nH]c3ccccc23)NC(=O)[C@H](CCCNC(=N)N)NC(=O)[C@@H](Cc2ccccc2)NC(=O)[C@H](Cc2c[nH]cn2)NC1=O [copper-64 labelled] | C57 mice, lung | intravenous, 0.37 MBq, 4 h |  | tissue uptake | 0.36 ± 0.08 %ID/g |
| C=C1CC[C@H](OCCCNC(=O)CCOCCOCCOCCOCCOCCOCCOCCOCCOCCOCCOCCOCCOCCOCCOCCOCCOCCOCCOCCOCCOCCOCCOCCOCCOCCOCCOCCOCCOCCOCCOCCOCCOCCOCCOCCOCCNC(=O)CCN2C(=O)CC(SC[C@H](NC(=O)[C@H](Cc3ccccc3)NC(=O)[C@H](CC(N)=O)NC(=O)[C@H](Cc3c[nH]cn3)NC(=O)[C@@H](NC(=O)[C@H](CC(=O)O)NC(=O)[C@H](CCC(N)=O)NC(=O)[C@H](CC(C)C)NC(=O)[C@H](CCCCN)NC(=O)[C@H](CCCCN)NC(=O)[C@H](CCCNC(=N)N)NC(=O)[C@H](CC(C)C)NC(=O)[C@H](Cc3c[nH]c4ccccc34)NC(=O)[C@H](CCC(=O)O)NC(=O)[C@@H](NC(=O)[C@H](CCCNC(=N)N)NC(=O)[C@H](CCC(=O)O)NC(=O)[C@H](CCSC)NC(=O)[C@H](CO)NC(=O)[C@H](CC(N)=O)NC(=O)[C@H](CC(C)C)NC(=O)[C@H](Cc3c[nH]cn3)NC(=O)[C@H](CCCCN)NC(=O)CNC(=O)[C@H](CC(C)C)NC(=O)[C@H](CC(N)=O)NC(=O)[C@H](Cc3c[nH]cn3)NC(=O)[C@H](CCSC)NC(=O)[C@H](CC(C)C)NC(=O)[C@H](CCC(N)=O)NC(=O)[C@@H](NC(=O)[C@H](CCC(=O)O)NC(=O)[C@H](CO)NC(=O)[C@@H](NC(=O)[C@@H](N)CO)C(C)C)[C@@H](C)CC)C(C)C)C(C)C)C(N)=O)C2=O)C/C1=C/C=C1\CCC[C@]2(C)[C@@H]([C@H](C)CCCC(C)(C)O)CC[C@@H]12 (stereo partly shown) | cynomolgus monkey | subcutaneous, 0.7 µg/kg every other day, 89 days | relative to: reference dose | dose-normalized Cmax | 1 |
| CC1=C(I)C(C)=[N+]2C1=C(c1ccc(OCCn3cc(CNC(=O)CSC[C@H](NC(=O)c4ccc(-c5nnc(C)nn5)cc4)C(=O)N[C@H](CCCNC(=N)N)C(=O)N[C@@H](CC4CCCCC4)C(=O)N[C@H](CCCNC(=N)N)C(=O)N[C@@H](CC4CCCCC4)C(=O)N[C@H](CCCNC(=N)N)C(=O)N[C@@H](CC4CCCCC4)C(=O)N[C@H](CCCNC(=N)N)C(N)=O)nn3)cc1)c1c(C)c(I)c(C)n1[B-]2(F)F |  | 1 µM, together with: DPBF, 525 nm light | relative to: rose bengal, erythrosine B | singlet oxygen quantum yield | 0.56 |
| CC(C)C[C@H](NC(=O)[C@@H](CCCCNC(=O)CCCCCNC(=O)CN1CCN(CC(=O)O)CCN(CC(=O)O)CCN(CC(=O)O)CC1)NC(=O)[C@H](Cc1ccc(O)cc1)NC(=O)[C@H](CO)NC(=O)[C@H](Cc1c[nH]c2ccccc12)NC(=O)[C@H](Cc1cnc[nH]1)NC(=O)[C@@H]1CCC(=O)N1)C(=O)N[C@@H](CCCNC(=N)N)C(=O)N1CCC[C@H]1C(=O)NCC(N)=O [indium-111 labelled] | female athymic nude mouse, muscle | intravenous, 0.037 MBq, 0.5 h |  | tissue uptake | 0.51 ± 0.34 %ID/g |
| CCCC[C@H](NC(=O)COCCOCCNC(=O)CN1CCN(CC(=O)O)CCN(CC(=O)O)CC1)C(=O)N[C@H]1CC(=O)NCCCC[C@@H](C(N)=O)NC(=O)[C@H](Cc2c[nH]c3ccccc23)NC(=O)[C@H](CCCNC(=N)N)NC(=O)[C@@H](Cc2ccccc2)NC(=O)[C@H](Cc2c[nH]cn2)NC1=O [copper-64 labelled] | C57 mice, tumor | intravenous, 0.37 MBq, 0.5 h |  | tissue uptake | 16.2 ± 0.42 %ID/g |
| CCCC[C@H](NC(=O)CNC(=O)CNC(=O)CN1CCN(CC(=O)O)CCN(CC(=O)O)CC1)C(=O)N[C@H]1CC(=O)NCCCC[C@@H](C(N)=O)NC(=O)[C@H](Cc2c[nH]c3ccccc23)NC(=O)[C@H](CCCNC(=N)N)NC(=O)[C@@H](Cc2ccccc2)NC(=O)[C@H](Cc2c[nH]cn2)NC1=O [technetium-99m labelled] | C57 mouse, kidney | iv, 0.037 MBq, 2 h |  | tissue uptake | 1.59 ± 0.52 %ID/g |
| Cc1cc(-c2ccc(NC(=O)[C@H](CCCCNC(=O)CCOCCOCCC(=O)N[C@H](Cc3ccccc3)C(=O)N[C@H]3CSSC[C@@H](C(=O)N[C@H](C(=O)O)[C@@H](C)O)NC(=O)[C@H]([C@@H](C)O)NC(=O)[C@H](CCCCN)NC(=O)[C@@H](Cc4c[nH]c5ccccc45)NC(=O)[C@H](Cc4ccc(O)cc4)NC3=O)NC(=O)CN3CCN(CC(=O)O)CCN(CC(=O)O)CCN(CC(=O)O)CC3)c(C)c2)ccc1N=Nc1ccc2c(S(=O)(=O)O)cc(S(=O)(=O)O)c(N)c2c1O [lutetium-177 labelled] | patients with metastatic neuroendocrine tumours, liver |  | relative to: compound over 177Lu-EB-TATE | residence time ratio | 3.4 fold |
| N=C(N)NCCC[C@@H]1NC(=O)[C@H](CCCCNC(=O)CNC(=O)CNC(=O)CNC(=O)CC[C@H](NC(=O)CNC(=O)CNC(=O)CNC(=O)CN2CCN(CC(=O)O)CCN(CC(=O)O)CCN(CC(=O)O)CC2)C(=O)NCC(=O)NCC(=O)NCC(=O)NCCCC[C@@H]2NC(=O)[C@@H](Cc3ccccc3)NC(=O)[C@H](CC(=O)O)NC(=O)CNC(=O)[C@H](CCCNC(=N)N)NC2=O)NC(=O)[C@@H](Cc2ccccc2)NC(=O)[C@H](CC(=O)O)NC(=O)CNC1=O [indium-111 labelled] | female athymic nu/nu mice, lungs | intravenous, 4 h |  | tissue uptake | 1.22 ± 0.08 %ID/g |
| Cc1cc(-c2ccc(NC(=O)[C@H](CCCCNC(=O)CCN3C(=O)CC(SCCC(=O)N[C@H](Cc4ccccc4)C(=O)N[C@H]4CSSC[C@@H](C(=O)N[C@H](C(=O)O)[C@@H](C)O)NC(=O)[C@H]([C@@H](C)O)NC(=O)[C@H](CCCCN)NC(=O)[C@@H](Cc5c[nH]c6ccccc56)NC(=O)[C@H](Cc5ccc(O)cc5)NC4=O)C3=O)NC(=O)CN3CCN(CC(=O)O)CCN(CC(=O)O)CCN(CC(=O)O)CC3)c(C)c2)ccc1N=Nc1ccc2c(S(=O)(=O)O)cc(S(=O)(=O)O)c(N)c2c1O (stereo partly shown) [lutetium-177 labelled] | patients with metastatic NETs, lymph node metastases |  |  | initial uptake | 4.5 % injected activity |
| N=C(N)NCCC[C@@H]1NC(=O)[C@H](CCCCNC(=O)CNC(=O)CNC(=O)CNC(=O)CC[C@H](NC(=O)CNC(=O)CNC(=O)CNC(=O)CC[C@H](NC(=O)CN2CCN(CC(=O)O)CCN(CC(=O)O)CCN(CC(=O)O)CC2)C(=O)NCC(=O)NCC(=O)NCC(=O)N[C@@H](CCC(=O)NCC(=O)NCC(=O)NCC(=O)NCCCC[C@@H]2NC(=O)[C@@H](Cc3ccccc3)NC(=O)[C@H](CC(=O)O)NC(=O)CNC(=O)[C@H](CCCNC(=N)N)NC2=O)C(=O)NCC(=O)NCC(=O)NCC(=O)NCCCC[C@@H]2NC(=O)[C@@H](Cc3ccccc3)NC(=O)[C@H](CC(=O)O)NC(=O)CNC(=O)[C@H](CCCNC(=N)N)NC2=O)C(=O)NCC(=O)NCC(=O)NCC(=O)NCCCC[C@@H]2NC(=O)[C@@H](Cc3ccccc3)NC(=O)[C@H](CC(=O)O)NC(=O)CNC(=O)[C@H](CCCNC(=N)N)NC2=O)NC(=O)[C@@H](Cc2ccccc2)NC(=O)[C@H](CC(=O)O)NC(=O)CNC1=O [indium-111 labelled] | female athymic nu/nu mice, kidney | intravenous, 1 h |  | tissue uptake | 8.42 ± 0.86 %ID/g |

A few entries again:
| SMILES | test system | conditions | scale | measurement | result |
| --- | --- | --- | --- | --- | --- |
| CC(C)C[C@H](NC(=O)[C@@H](CCCCNC(=O)CCCCCNC(=O)CN1CCN(CC(=O)O)CCN(CC(=O)O)CCN(CC(=O)O)CC1)NC(=O)[C@H](Cc1ccc(O)cc1)NC(=O)[C@H](CO)NC(=O)[C@H](Cc1c[nH]c2ccccc12)NC(=O)[C@H](Cc1cnc[nH]1)NC(=O)[C@@H]1CCC(=O)N1)C(=O)N[C@@H](CCCNC(=N)N)C(=O)N1CCC[C@H]1C(=O)NCC(N)=O [indium-111 labelled] | female athymic nude mouse, muscle | intravenous, 0.037 MBq, 0.5 h |  | tissue uptake | 0.51 ± 0.34 %ID/g |
